Measured values from different studies.
Every numbered part comes from another study and shows a few of its results, in no order. Substitutions count along the parent as printed.
Sequence of UniProt Q9Y2X8 (whole entry, looked up): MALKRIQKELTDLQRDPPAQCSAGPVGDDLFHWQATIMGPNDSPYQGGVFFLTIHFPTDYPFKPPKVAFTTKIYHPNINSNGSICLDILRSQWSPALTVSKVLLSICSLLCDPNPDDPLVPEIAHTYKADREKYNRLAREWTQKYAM

Set 1
Target: Runt-related transcription factor 1, full length (RUNX1, Homo sapiens, UniProt Q01196-8, residues 1-480)
Technique: protein-binding microarray
Molecule type: hairpin DNA
Matrix: in vitro
Concentration: not given
Notes: whole hairpin DNA, median over replicate spots
Reference: not given
Reading: higher = stronger binding
Quantity: median fluorescence
GAGGCCTGTTGTGGCGGGCCTCCTGGCCCGCCACAACAGGCCTCACACTC: 2060 a.u.
GAGGCCCGTTGCGGTTGGCCTCCTGGCCAACCGCAACGGGCCTCACACTC (5mC at 37): 6190 a.u.
GAGGCCCAACCGCAACAGCCTCCTGGCTGTTGCGGTTGGGCCTCACACTC (5mC at 33): 2980 a.u.
GAGGCCTGTTGTGGTTCGCCTCCTGGCGAACCACAACAGGCCTCACACTC: 2550 a.u.
GAGGCCCAACCGCAACAGCCTCCTGGCTGTTGCGGTTGGGCCTCACACTC (5mC at 16): 6830 a.u.
GAGGCCTGTCCCGGTTGGCCTCCTGGCCAACCGGGACAGGCCTCACACTC (5mC at 11): 1850 a.u.
GAGGCCTGTCCGGGTTGGCCTCCTGGCCAACCCGGACAGGCCTCACACTC (5mC at 11): 1810 a.u.
GAGGCCTGTTGTGGCTGGCCTCCTGGCCAGCCACAACAGGCCTCACACTC: 2030 a.u.

Set 2
Target: CCNE1, cyclin fold, Cln2 fusion (human)
Technique: yeast growth competition, sequencing
Matrix: yeast
Notes: strong parent motif
Reference: not given
Reading: higher = stronger binding
Quantity: normalised enrichment score
Parent: viral docking peptide; TSVRRALFTGGSD
G11C: 5.74
G11W: 4.35
R5T: 0.148
R4L: 1.13
F8A: -0.00846
R5E: -0.16
T9N: 4.47
T9A: 4.28
L7W: 0.497
L7D: 0.199
R5I: 0.626
S2R: 5.48
L7I: 0.739
S2M: 4.23
A6R: 7.36
G11K: 5.04
V3D: 0.133

Set 3
Target: Histone acetyltransferase KAT6A, winged helix 1, GST fusion (KAT6A, Homo sapiens, UniProt Q92794, residues 1-85)
Technique: protein binding microarray
Molecule type: double-stranded DNA, one strand shown
Matrix: in vitro
Concentration: not given
Notes: 8-mer, flanks averaged, mean of 2 arrays, mostly near background
Reference: not given
Reading: higher = stronger binding
Quantity: E-score
Residues (chain): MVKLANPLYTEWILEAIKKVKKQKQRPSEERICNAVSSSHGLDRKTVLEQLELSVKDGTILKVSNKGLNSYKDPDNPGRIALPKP
ACTCCCAA: -0.298
ATACTCAT: -0.132
ACAGCTCA: -0.119
CTACAGTA: -0.19
CGGCCCCC: 0.212
ATCACCAC: -0.0216
ACAGAGCA: -0.22
GCCTTGCC: 0.00668

Mixed results
HLA class I histocompatibility antigen, A alpha chain allele A*80:01: HLA class I histocompatibility antigen, A alpha chain, allele A*80:01 (Homo sapiens, UniProt P04439)
WLYDLWGQL  binding (HLA class I histocompatibility antigen, A alpha chain allele A*80:01; peptide-MHC binding; peptide; concentration not given): inactive
SYEDKSNDFVCPICFDMIEEAYMTKCGHSFCYKCIHQSLEDNNRCPKCNYVVDNIDHLY (COP1 RING domain (UniProt Q8NHY2))  lacZ reporter activity (UBE2D4 UBC core domain (UniProt Q9Y2X8); yeast two-hybrid; yeast; mostly zero background; reference: not given, higher = stronger interaction): 0
LAMLVLHQV  binding (HLA class I histocompatibility antigen, A alpha chain allele A*80:01; peptide-MHC binding; peptide; concentration not given): inactive

Some of these lines once more (set 1):
GAGGCCTGTCCCGGTTGGCCTCCTGGCCAACCGGGACAGGCCTCACACTC (5mC at 11): 1850 a.u.
GAGGCCTGTCCGGGTTGGCCTCCTGGCCAACCCGGACAGGCCTCACACTC (5mC at 11): 1810 a.u.
GAGGCCTGTTGTGGCTGGCCTCCTGGCCAGCCACAACAGGCCTCACACTC: 2030 a.u.
